# Measured values gathered from unrelated publications.
# Each line is one published result; not all experiments were run side by side.
# UniProt O00574, sequence (whole entry, looked up): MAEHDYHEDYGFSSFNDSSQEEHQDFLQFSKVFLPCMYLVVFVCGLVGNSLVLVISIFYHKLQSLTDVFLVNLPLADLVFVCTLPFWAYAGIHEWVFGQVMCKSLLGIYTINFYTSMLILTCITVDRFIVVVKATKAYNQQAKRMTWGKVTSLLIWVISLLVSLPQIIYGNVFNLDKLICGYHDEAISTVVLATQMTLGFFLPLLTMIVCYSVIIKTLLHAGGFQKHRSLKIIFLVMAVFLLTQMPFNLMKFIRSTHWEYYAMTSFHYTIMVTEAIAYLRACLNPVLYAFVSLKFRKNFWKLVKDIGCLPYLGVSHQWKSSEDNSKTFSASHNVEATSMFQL
# UniProt P51617, sequence (whole entry, looked up): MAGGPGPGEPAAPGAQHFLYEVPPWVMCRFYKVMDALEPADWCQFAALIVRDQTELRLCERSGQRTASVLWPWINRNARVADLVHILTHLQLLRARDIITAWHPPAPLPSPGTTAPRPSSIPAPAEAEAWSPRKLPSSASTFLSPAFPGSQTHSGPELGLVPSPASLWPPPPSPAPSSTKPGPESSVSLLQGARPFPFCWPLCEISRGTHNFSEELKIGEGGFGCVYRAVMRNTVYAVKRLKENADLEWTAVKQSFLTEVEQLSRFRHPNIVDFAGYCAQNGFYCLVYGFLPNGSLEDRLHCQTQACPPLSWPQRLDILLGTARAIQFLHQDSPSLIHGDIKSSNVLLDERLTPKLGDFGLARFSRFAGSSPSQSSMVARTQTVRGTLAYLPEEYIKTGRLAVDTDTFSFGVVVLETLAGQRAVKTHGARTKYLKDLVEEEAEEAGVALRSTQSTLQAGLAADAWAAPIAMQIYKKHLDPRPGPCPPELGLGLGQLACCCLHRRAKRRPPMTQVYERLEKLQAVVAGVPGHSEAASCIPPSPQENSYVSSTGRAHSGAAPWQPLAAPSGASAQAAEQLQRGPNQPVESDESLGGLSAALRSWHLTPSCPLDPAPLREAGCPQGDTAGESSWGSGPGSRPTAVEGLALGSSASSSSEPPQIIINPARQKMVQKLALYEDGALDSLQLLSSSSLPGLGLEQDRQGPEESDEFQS
# UniProt P07101, sequence (whole entry, looked up): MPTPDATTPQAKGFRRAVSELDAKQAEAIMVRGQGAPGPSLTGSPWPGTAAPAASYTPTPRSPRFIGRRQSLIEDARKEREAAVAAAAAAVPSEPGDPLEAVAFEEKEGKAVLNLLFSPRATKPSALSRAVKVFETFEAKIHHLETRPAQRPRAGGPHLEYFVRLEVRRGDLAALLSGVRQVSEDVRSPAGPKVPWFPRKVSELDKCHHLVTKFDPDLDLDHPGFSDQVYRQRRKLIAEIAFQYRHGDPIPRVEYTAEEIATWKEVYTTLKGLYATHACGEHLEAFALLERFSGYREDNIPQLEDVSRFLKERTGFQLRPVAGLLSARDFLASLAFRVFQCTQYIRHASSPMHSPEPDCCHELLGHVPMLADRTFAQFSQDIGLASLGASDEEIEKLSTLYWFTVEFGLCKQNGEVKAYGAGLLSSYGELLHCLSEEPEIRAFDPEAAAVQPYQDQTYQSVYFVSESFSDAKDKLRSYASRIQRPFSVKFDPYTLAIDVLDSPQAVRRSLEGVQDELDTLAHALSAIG
# UniProt O15264, sequence (whole entry, looked up): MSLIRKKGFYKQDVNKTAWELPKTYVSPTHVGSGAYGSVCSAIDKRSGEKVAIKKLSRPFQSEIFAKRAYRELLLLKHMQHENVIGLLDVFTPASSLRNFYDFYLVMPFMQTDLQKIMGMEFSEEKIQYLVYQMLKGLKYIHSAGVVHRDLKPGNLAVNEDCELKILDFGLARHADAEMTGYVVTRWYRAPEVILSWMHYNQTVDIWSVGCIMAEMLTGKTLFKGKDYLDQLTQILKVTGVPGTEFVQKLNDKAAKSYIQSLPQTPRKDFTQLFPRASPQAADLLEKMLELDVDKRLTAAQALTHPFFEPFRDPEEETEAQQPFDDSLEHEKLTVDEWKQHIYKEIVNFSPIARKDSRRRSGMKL
Compound,target or system,assay,test system,conditions,scale,measurement,value
CC[C@H](C)[C@@H]1NC(=O)[C@@H]2CCCN2C(=O)[C@H](CC(C)C)NC(=O)[C@H](CC(C)C)NC(=O)CNC(=O)[C@@H](NC(=O)[C@@H](NC(=O)[C@H](CC(=O)O)NC(=O)CNC(=O)[C@@H](NC(=O)[C@H](C)NC(=O)CNC(=O)[C@H](CCCCN)NC(=O)[C@H](CC(C)C)NC(=O)[C@H](CC(C)C)NC(=O)[C@H](CCCCN)NC(=O)CNC(=O)[C@@H](NC(=O)[C@@H](N)CC(C)C)C(C)C)C(C)C)C(C)C)CSSC[C@@H](C(=O)O)NC1=O,,"RNA-seq, refers to: Ankrd9","mouse, traumatic brain injury model, frontal cortex and hippocampus",dose not given,relative to: TBI alone,log2 fold change,-0.875
CN1CCN(c2cc(-c3ccncc3)c(-c3ccc4ccccc4c3)nn2)CC1,"CXCR6 (Homo sapiens, UniProt O00574)","agonist, FLIPR",,12.5 µM,,activation,-0.9%
COc1ccc(-n2nc(C(C)=O)s/c2=N\N=C(/C)c2ccc(NC(C)=O)cc2)cc1,MCF7,,,0.078 µM,,viability,46.1%
N=C(N)c1ccc(OCc2ccc(-c3ccccc3)cc2COc2ccc(C(=N)N)cc2)cc1,Escherichia coli,checkerboard,mcr-3 polymyxin-resistant,"concentration not given, added: rifampicin",,MIC of compound in combination,3.13 µg/mL
COc1cc(CCC[P+](c2ccccc2)(c2ccccc2)c2ccccc2)c(OC)c2c1OCO2.[I-],CCRF-CEM,SRB,,,,Log10TGI,> -4 log M
C#CC[C@@H](N)C(=O)N[C@H](CCC(N)=O)C(=O)NCC(=O)N[C@H](CC(C)C)C(=O)NCC(=O)N[C@H](CC)C(=O)N[C@H](CC(=O)O)C(=O)N[C@H](CCC(=O)O)C(=O)N[C@H](CC(N)=O)C(=O)N[C@H](CC(C)C)C(=O)N[C@H](CCC(N)=O)C(=O)NCC(=O)N[C@H](Cc1ccccc1)C(=O)N[C@H](C)C(=O)N[C@@H](C(=O)N[C@H](C)C(=O)N[C@@H](C(=O)N[C@H](CCCCN)C(=O)N[C@H](CCSC)C(=O)NCC(=O)N[C@H](C)C(=O)N[C@H](Cc1ccc(O)cc1)C(=O)N[C@H](CCCCN)C(=O)N[C@H](C)C(=O)N[C@H](Cc1c[nH]c2ccccc12)C(=O)O)C(C)C)C(C)C,hemagglutinin influenza A/California/07/2009 H1N1,,,,,IC50,> 250 µM
CC[C@H](C)[C@H](NC(=O)[C@H](C)NC(=O)[C@H](CCCCN)NC(=O)[C@H](CC(C)C)NC(=O)[C@H](C)NC(=O)[C@@H](NC(=O)[C@H](Cc1c[nH]cn1)NC(=O)[C@H](CC(C)C)NC(=O)[C@@H](NC(=O)[C@@H](NC(=O)[C@H](CCCCN)NC(=O)[C@H](C)NC(=O)[C@H](C)NC(=O)[C@H](CO)NC(=O)[C@H](CCCCN)NC(=O)[C@H](Cc1ccccc1)NC(=O)[C@@H](NC(=O)[C@H](CCCCN)NC(=O)[C@H](CC(C)C)NC(=O)[C@H](Cc1ccccc1)NC(=O)[C@H](CO)NC(=O)[C@H](CCCCN)NC(=O)[C@H](Cc1c[nH]c2ccccc12)NC(=O)[C@H](CCCCN)NC(C)=O)[C@@H](C)O)[C@@H](C)O)C(C)C)[C@@H](C)O)C(=O)N[C@@H](CO)C(=O)N[C@@H](CO)C(N)=O,Acinetobacter baumannii,,ATCC 19606,,,MIC50,2 µg/mL
CCCCC1(CCCC)CN(c2ccccc2)c2cc(SC)c(OCC(=O)N[C@@H](C(=O)NCC(=O)O)c3ccccc3)cc2S(=O)(=O)C1,,refers to: LDL cholesterol,"human, serum","15 mg once daily, day 1",,serum LDL-C,97.6 mg/dL
CC[C@@H](NC(=O)CNC(=O)[C@@H](CC(C)C)NC(=O)CNC(=O)[C@H](N)CCC(N)=O)C(=O)N[C@H](CC(=O)O)C(=O)N[C@H](CCC(=O)O)C(=O)N[C@H](CCSC)C(=O)N[C@H](CC(C)C)C(=O)N[C@H](CCC(N)=O)C(=O)NCC(=O)N[C@H](Cc1ccccc1)C(=O)N[C@H](C)C(=O)N[C@@H](C(=O)N[C@H](C)C(=O)N[C@@H](C(=O)N[C@H](CCCCN)C(=O)N[C@H](CCSC)C(=O)NCC(=O)N[C@H](C)C(=O)N[C@@H](C(=O)N[C@H](CCCCN)C(=O)N[C@H](C)C(=O)N[C@H](CC(=O)O)C(=O)O)[C@H](C)O)C(C)C)C(C)C,hemagglutinin influenza A/California/07/2009 H1N1,,,,,IC50,81 µM
C[C@H]1CN(c2n[nH]c3nc(N[C@H]4CC[C@H](NS(=O)(=O)CCC(F)(F)F)CC4)ncc23)CCO1,"IRAK1 (Homo sapiens, UniProt P51617)","inhibitor, Kinobeads competition profiling",,0.8 µM,relative to: vehicle,relative abundance,1.11
COc1cc(Nc2ncc(F)c(Nc3ccc4c(n3)NC(=O)C(C)(C)O4)n2)cc(OC)c1OC,"TH (Homo sapiens, UniProt P07101)",,,,,IC50,> 10 µM
CN1CCN(C2(CNC3CCN(c4cccc(-c5cc6cc(F)ccc6[nH]5)c4)CC3)CCC2)CC1,786-0,,,,,TGI,3.11 µM
CCCCCCCCCC(=O)CC(=O)N[C@H]1CCOC1=O,ExpR1 (Pectobacterium carotovorum),"cellulase activity, agonist","Pectobacterium carotovorum, single-ExpR1 strain","200 µM, 4 h",relative to: OHHL,activation,2%
Cc1c([N+](=O)[O-])oc2ccc3ccccc3c12,Mycobacterium bovis BCG,,1173 P2,,,MIC90,2 µg/mL
CC[C@H](C)[C@H](NC(=O)[C@H](CC(C)C)NC(=O)[C@H](CCCNC(=N)N)NC(=O)[C@H](CCCNC(=N)N)NC(=O)[C@H](CCCNC(=N)N)NC(=O)[C@H](CCCNC(=N)N)NC(=O)[C@H](CC(C)C)NC(=O)[C@@H](NC(=O)[C@@H](NC(=O)[C@@H](NC(=O)[C@H](CC(C)C)NC(=O)[C@H](CCCNC(=N)N)NC(=O)[C@H](CO)NC(=O)[C@@H](N)CO)C(C)C)[C@@H](C)CC)[C@@H](C)CC)C(=O)N[C@@H](CO)C(=O)N[C@@H](CCCNC(=N)N)C(=O)N[C@@H](CCCNC(=N)N)C(=O)N[C@@H](CCCNC(=N)N)C(=O)N[C@@H](CCCNC(=N)N)C(N)=O,ESKAPE pathogens,,,range over most pathogens,,MIC,1 to 4 µM
O=C(Cc1cccc([N+](=O)[O-])c1)N[C@H]1CCOC1=O,ExpR1 (Pectobacterium carotovorum),"cellulase activity, antagonist","Pectobacterium carotovorum, single-ExpR1 strain","5 µM, 4 h, added: OHHL 5 µM",,inhibition,-15%
"COCCC1=C(C(=O)OC)C(c2ccc(Cl)cc2)C2=C(CC(c3ccc(OC)c(OC)c3)CC2=O)N1 (single isomer, unassigned)",J774.A1,cytotoxicity,,,,EC50,> 20 µM
O=C(Cc1cccc(Cl)c1)N[C@H]1CCOC1=O,ExpR1 (Pectobacterium carotovorum),"cellulase activity, antagonist","Pectobacterium carotovorum, single-ExpR1 strain","5 µM, 4 h, added: OHHL 5 µM",,inhibition,63%
CN1CC[C@]23c4c5ccc(O)c4O[C@H]2[C@@H](OS(=O)(=O)O)C=C[C@H]3[C@H]1C5,,hot water tail withdrawal test,normal Sprague-Dawley rats,dose not given,,time to return to baseline latency,2 to 3 h
COc1c(CCC[P+](c2ccccc2)(c2ccccc2)c2ccccc2)cc2c(c1OC)OCO2.[I-],SK-MEL-2,SRB,,,,GI50,-5.52 log M
CS(=O)(=O)CCCn1c(Cn2c(=O)n(CC(F)(F)F)c3ccncc32)cc2cc(Cl)ccc21,respiratory syncytial virus,RT-qPCR,"hospitalized infants 1-24 months, nasal swab","oral, 2, 1.5 or 1 mg/kg daily, day 14, low dose by age cohort",relative to: baseline,LS mean viral load change,-3.96 log10 copies/mL
COc1ccc(N2C(=O)N(c3c(C)cccc3Cl)Cc3cnc(Nc4ccc(C5CCN(C)CC5)cc4OC)nc32)nc1,"MAPK13 (Homo sapiens, UniProt O15264)","kinase activity, inhibitor",,"0.5 µM, kinase P38-DELTA",,inhibition,3.58%
Cn1c(=O)ccc2ccc(F)c(CCNC[C@H]3CN(c4cnc5c(n4)NC(=O)CO5)C(=O)O3)c21,Prevotella sp.,,,,,MIC50,< 0.015 µg/mL
Nc1ncnc2c1ncn2[C@@H]1O[C@@H]2COP(=O)(O)O[C@H]3[C@@H](O)[C@H](n4cnc5c(=O)[nH]cnc54)O[C@@H]3COP(=O)(O)O[C@H]2[C@H]1O,Zika virus,"downregulated Reactome pathway, RNA sequencing, refers to: Elastic fibre formation (R-HSA-1566948)",HFF-1,,relative to: ZIKV-infected untreated,fold enrichment,11.1

# Repeated from above:
Compound,target or system,assay,test system,conditions,scale,measurement,value
CCCCCCCCCC(=O)CC(=O)N[C@H]1CCOC1=O,ExpR1 (Pectobacterium carotovorum),"cellulase activity, agonist","Pectobacterium carotovorum, single-ExpR1 strain","200 µM, 4 h",relative to: OHHL,activation,2%
Cc1c([N+](=O)[O-])oc2ccc3ccccc3c12,Mycobacterium bovis BCG,,1173 P2,,,MIC90,2 µg/mL
CC[C@H](C)[C@H](NC(=O)[C@H](CC(C)C)NC(=O)[C@H](CCCNC(=N)N)NC(=O)[C@H](CCCNC(=N)N)NC(=O)[C@H](CCCNC(=N)N)NC(=O)[C@H](CCCNC(=N)N)NC(=O)[C@H](CC(C)C)NC(=O)[C@@H](NC(=O)[C@@H](NC(=O)[C@@H](NC(=O)[C@H](CC(C)C)NC(=O)[C@H](CCCNC(=N)N)NC(=O)[C@H](CO)NC(=O)[C@@H](N)CO)C(C)C)[C@@H](C)CC)[C@@H](C)CC)C(=O)N[C@@H](CO)C(=O)N[C@@H](CCCNC(=N)N)C(=O)N[C@@H](CCCNC(=N)N)C(=O)N[C@@H](CCCNC(=N)N)C(=O)N[C@@H](CCCNC(=N)N)C(N)=O,ESKAPE pathogens,,,range over most pathogens,,MIC,1 to 4 µM
